Published values pooled from the literature.
Each line is one published result; not all experiments were run side by side. “And” joins repeats or separate records; there may be more than shown. ± gives the spread as reported.
Chain of UniProt Q9H2G2 (whole entry, looked up): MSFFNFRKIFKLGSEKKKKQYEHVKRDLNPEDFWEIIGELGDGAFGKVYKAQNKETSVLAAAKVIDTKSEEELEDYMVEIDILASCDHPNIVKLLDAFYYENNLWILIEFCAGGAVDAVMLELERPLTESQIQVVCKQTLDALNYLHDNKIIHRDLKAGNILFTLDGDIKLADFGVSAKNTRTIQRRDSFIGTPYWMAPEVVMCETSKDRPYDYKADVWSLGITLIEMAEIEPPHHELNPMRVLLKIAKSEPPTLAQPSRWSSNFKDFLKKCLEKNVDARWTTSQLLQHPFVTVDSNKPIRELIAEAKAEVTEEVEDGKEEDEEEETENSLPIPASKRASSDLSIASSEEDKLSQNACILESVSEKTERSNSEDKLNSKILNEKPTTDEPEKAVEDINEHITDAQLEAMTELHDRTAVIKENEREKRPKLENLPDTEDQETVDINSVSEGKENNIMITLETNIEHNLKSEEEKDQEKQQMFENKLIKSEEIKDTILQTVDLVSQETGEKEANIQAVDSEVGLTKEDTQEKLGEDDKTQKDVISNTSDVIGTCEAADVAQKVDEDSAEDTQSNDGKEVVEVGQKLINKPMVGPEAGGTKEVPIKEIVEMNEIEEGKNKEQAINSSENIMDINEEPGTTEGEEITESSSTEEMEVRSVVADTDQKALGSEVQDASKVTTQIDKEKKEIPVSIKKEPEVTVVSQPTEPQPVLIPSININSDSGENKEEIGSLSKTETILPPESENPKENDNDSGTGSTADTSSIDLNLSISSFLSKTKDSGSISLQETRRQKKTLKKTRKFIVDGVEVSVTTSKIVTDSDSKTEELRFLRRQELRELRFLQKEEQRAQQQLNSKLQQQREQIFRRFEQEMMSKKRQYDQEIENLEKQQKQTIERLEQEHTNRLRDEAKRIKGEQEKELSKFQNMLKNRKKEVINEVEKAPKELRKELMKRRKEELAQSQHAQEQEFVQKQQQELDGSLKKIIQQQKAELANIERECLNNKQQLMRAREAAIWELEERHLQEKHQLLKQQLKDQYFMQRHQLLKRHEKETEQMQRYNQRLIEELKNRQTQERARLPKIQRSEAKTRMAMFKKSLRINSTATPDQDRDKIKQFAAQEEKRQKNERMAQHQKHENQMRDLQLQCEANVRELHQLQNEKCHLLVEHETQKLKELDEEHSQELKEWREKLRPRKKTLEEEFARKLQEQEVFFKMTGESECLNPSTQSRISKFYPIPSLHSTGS
Chain of UniProt Q8N568 (whole entry, looked up): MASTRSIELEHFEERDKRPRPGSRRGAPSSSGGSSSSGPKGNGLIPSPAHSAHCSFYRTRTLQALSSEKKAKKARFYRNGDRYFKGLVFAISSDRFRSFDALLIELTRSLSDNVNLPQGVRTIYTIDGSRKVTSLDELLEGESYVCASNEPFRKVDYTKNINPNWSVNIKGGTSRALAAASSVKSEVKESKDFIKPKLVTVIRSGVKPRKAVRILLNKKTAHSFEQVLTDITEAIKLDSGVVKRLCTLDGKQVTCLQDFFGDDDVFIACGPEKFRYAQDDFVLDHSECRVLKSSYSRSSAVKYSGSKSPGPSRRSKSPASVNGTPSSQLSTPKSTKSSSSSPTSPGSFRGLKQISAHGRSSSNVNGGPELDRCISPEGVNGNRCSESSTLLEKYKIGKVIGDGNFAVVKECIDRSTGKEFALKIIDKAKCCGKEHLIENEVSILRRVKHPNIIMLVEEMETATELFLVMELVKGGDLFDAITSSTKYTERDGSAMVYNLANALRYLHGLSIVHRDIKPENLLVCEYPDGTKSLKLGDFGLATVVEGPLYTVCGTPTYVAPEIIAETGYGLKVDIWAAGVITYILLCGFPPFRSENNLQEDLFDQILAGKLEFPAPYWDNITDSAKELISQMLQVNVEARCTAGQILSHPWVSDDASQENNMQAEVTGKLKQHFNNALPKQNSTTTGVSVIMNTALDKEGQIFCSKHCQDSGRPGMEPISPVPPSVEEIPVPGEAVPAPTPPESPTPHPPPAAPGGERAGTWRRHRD
Chain of UniProt Q6P2M8 (whole entry, looked up): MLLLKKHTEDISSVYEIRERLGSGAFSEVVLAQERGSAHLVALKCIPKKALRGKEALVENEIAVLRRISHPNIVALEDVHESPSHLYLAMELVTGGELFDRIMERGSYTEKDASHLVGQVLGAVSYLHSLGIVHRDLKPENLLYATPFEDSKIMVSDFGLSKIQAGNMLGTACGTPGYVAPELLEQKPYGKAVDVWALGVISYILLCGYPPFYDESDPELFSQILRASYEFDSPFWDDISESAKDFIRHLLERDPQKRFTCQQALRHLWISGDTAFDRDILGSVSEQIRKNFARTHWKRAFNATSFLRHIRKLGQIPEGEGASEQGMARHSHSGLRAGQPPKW

SMILES	tested on	test	test system	setting	scale	quantity	result
CC[C@H](C)[C@H](NC(=O)[C@H](CO)NC(=O)[C@H](Cc1ccc(O)cc1)NC(=O)[C@H](Cc1ccc(O)cc1)NC(=O)[C@H](CC(N)=O)NC(=O)CNC(=O)[C@H](CO)NC(=O)[C@H](Cc1ccc(O)cc1)NC(=O)[C@H](CO)NC(=O)[C@H](CO)NC(=O)[C@H](CC(N)=O)NC(=O)COCCOCCNC(=O)CN1CCN(CC(=O)O)CCN(CC(=O)O)CCN(CC(=O)O)CC1)C(=O)N[C@@H](CC(C)C)C(N)=O [copper-64 labelled]	–	dynamic PET	KPC mouse Ptf1a-CreER tdTomato, pancreas	intravenous, 4.6 MBq/mouse, 22.5 min, 84 d after tamoxifen	–	tissue uptake	12.2 %ID/mL
COc1ccccc1-c1n[nH]c2nc(N[C@H]3CC[C@H](NS(=O)(=O)CC(C)C)CC3)ncc12	–	bead binding, competition bead pull-down, refers to: LINJ.35.0360	Leishmania donovani extract	10 µM	baseline: vehicle	relative abundance	1.32
CCOC(=O)C1(C)Oc2cc(F)ccc2N(C)C1=O (stereo not drawn)	Arabidopsis thaliana	stem length, petri dish germination	Col-0, 1/2 MS medium	200 µg/mL, 7 days, 22 °C, dark	–	inhibition	100%
CN(C)[C@H]1C[C@@]23CC[C@@]4(O2)C(=CC[C@]2(C)[C@@H](c5ccc6ccncc6c5)CC[C@H]24)C=C3[C@@H](O)[C@@H]1O	Calcium/calmodulin-dependent protein kinase type 1B (PNCK, Homo sapiens, UniProt Q6P2M8)	ATP probe labelling, inhibitor, KiNativ profiling	–	0.1 µM	–	inhibition	-1.1%
O=C1NC2(CC2)COc2ncc(F)cc2[C@H]2COCCN2c2ccn3ncc1c3n2	–	–	Sprague-Dawley rat, female, serum	oral, 5 mg/kg/day, end of treatment, 4-week subacute toxicity	–	serum total protein	60.4 ± 2.1 g/L
CN1C(=O)C(C2C3=C(CC(C)(C)CC3=O)Oc3ccc([N+](=O)[O-])cc32)C(=O)N(C)C1=O (stereo not drawn)	mouse preadipocytes	qPCR, refers to: aP2	–	IC20, 14 days, adipogenic induction	baseline: untreated cells	mRNA level	decreased
O=C1NC(=O)c2c1c1cc(F)c[n+]3c1c1c2c2cc(O)ccc2[n]1[Ru-4]312([N]=C=S)[S+]3CC[S+]1CC[S+]2CC3 (stereo not drawn)	Serine/threonine-protein kinase DCLK2 (DCLK2, Homo sapiens, UniProt Q8N568)	enzyme activity	–	100 nM, human enzyme, together with: 10 µM ATP	baseline: untreated	remaining activity	72%
Fc1cccc(COc2ccc(Nc3ncnc4ccc(-c5ccc(CN6CCCCC6)cc5)cc34)cc2Cl)c1	Plasmodium falciparum	parasite growth, SYBR Green	D6	blood stage	–	EC50	68 nM
Cc1cc(Oc2nc(N3CC[C@@H](c4ccncc4)C3)ncc2F)[nH]n1	Mycobacterium tuberculosis	–	THP-1, H37Rv non-replicating	3.001 µM, day 4 plus 1	–	normalised growth	63.4% and 59.2%
CC(C)C[C@@H]1NC(=O)[C@@H](Cc2c[nH]c3ccccc23)NC(=O)[C@H](CCCNC(=N)N)NC(=O)[C@@H](CCC(=O)O)NC(=O)[C@H](CCC(N)=O)NC(=O)[C@@H](CCC(=O)O)NC(=O)[C@H](CCCNC(=N)N)NC(=O)[C@@H](Cc2c[nH]c3ccccc23)NC1=O	–	Luminex, refers to: IL1b	LDLr-/- mice, Western diet, liver	dose not given, 4 weeks	–	cytokine level	430 ± 100 pg/g tissue
CC(C)(C)C(=O)OCOP(=O)(OCOC(=O)C(C)(C)C)C1CCCN(O)C1=O (stereo not drawn)	CCRF-CEM	cell growth	–	–	–	TGI	2300 nM
CC(C)CC(C(=O)N1CC2(CC1C#N)C(=O)Nc1ccccc12)N(C)C(=O)c1cc2c(F)cc(F)c(F)c2[nH]1 (stereo not drawn)	human coronavirus 229E	viral replication	MRC-5	0.0125 µM	–	inhibition	100%
Cc1ccc(N2CC3CC(C2)N3C)cc1C(=O)NC1(c2ccc3c4c(cccc24)C(=O)N3C)CC1	human coronavirus 229E	viral replication	Huh-7	0.75 µM	–	inhibition	20%
CS(C)(=O)=Nc1ccc(-c2ccc(-c3nc4cc(O[C@@H]5CO[C@H]6[C@@H]5OC[C@H]6O)[nH]c4cc3F)cc2)cc1	Serine/threonine-protein kinase pim-3 (PIM3, Homo sapiens, UniProt Q86V86)	enzyme activity, inhibitor	–	10 µM	–	inhibition	-9%
CC[C@H](C)CCCCC(=O)N[C@@H](CCN)C(=O)N[C@H](C(=O)N[C@@H](CCN)C(=O)N[C@H]1CCNC(=O)[C@H]([C@@H](C)O)NC(=O)[C@H](CCN)NC(=O)[C@H](CCN)NC(=O)[C@H](CC(C)C)NC(=O)[C@@H](CC(C)C)NC(=O)[C@H](CCN)NC1=O)[C@@H](C)O	Escherichia coli	daily serial passaging	ATCC 8739	highest sub-MIC, 30 days	baseline: initial MIC	MIC fold change	1.32
CC(C)[C@H]1NC(=O)C[C@H]2/C=C/CCSSC[C@@H](NC1=O)C(=O)N[C@H](Cc1cccc3ccccc13)C(=O)NCC(=O)O2	STE20-like serine/threonine-protein kinase (SLK, Homo sapiens, UniProt Q9H2G2)	enzyme activity, inhibitor	–	10 µM	–	inhibition	8.1%
Cc1cc(C(=O)Nc2nc3cccc(C)c3n2[C@H]2CCCCN(C(=O)/C=C/CN(C)C)C2)ccn1	Trypanosoma brucei	cell growth, Alamar Blue	2T1 overexpressing Tb927.7.5770	–	baseline: parental 2T1	EC50 fold shift	0.27 fold and 0.77 fold
COc1ccccc1-c1n[nH]c2nc(NC3CCN(C(=O)Cc4ccc(F)cc4F)CC3)ncc12	–	bead binding, competition bead pull-down, refers to: LMJF.36.3530	Leishmania donovani axenic amastigote extract	10 µM	baseline: vehicle	relative abundance	0.91

Some of these lines once more:
SMILES	tested on	test	test system	setting	scale	quantity	result
Fc1cccc(COc2ccc(Nc3ncnc4ccc(-c5ccc(CN6CCCCC6)cc5)cc34)cc2Cl)c1	Plasmodium falciparum	parasite growth, SYBR Green	D6	blood stage	–	EC50	68 nM
